Measured values of several laboratories.
Every numbered part comes from another study and shows a few of its results, in no order. Several values in a cell are separate wells, animals, samples, runs or records.
Chain of UniProt Q15418 (whole entry, looked up): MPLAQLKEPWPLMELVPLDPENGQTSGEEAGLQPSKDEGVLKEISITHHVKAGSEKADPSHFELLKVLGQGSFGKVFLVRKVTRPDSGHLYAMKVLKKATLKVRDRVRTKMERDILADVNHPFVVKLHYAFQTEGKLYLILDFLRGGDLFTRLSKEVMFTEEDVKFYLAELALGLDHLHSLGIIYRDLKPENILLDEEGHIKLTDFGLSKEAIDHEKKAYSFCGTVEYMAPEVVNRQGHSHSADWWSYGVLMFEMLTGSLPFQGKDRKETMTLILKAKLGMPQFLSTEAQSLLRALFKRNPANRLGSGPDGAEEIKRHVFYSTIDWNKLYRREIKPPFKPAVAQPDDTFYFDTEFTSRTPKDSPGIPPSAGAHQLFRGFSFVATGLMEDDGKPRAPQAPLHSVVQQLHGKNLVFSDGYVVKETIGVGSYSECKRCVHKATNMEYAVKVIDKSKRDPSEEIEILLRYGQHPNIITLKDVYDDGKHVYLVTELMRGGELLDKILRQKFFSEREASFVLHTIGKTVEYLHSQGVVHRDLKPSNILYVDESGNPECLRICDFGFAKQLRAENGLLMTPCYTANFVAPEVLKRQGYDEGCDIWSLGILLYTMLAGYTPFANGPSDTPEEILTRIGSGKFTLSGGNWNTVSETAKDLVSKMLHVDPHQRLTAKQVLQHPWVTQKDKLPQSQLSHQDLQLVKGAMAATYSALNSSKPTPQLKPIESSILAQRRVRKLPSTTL
Chain of UniProt P24723 (whole entry, looked up): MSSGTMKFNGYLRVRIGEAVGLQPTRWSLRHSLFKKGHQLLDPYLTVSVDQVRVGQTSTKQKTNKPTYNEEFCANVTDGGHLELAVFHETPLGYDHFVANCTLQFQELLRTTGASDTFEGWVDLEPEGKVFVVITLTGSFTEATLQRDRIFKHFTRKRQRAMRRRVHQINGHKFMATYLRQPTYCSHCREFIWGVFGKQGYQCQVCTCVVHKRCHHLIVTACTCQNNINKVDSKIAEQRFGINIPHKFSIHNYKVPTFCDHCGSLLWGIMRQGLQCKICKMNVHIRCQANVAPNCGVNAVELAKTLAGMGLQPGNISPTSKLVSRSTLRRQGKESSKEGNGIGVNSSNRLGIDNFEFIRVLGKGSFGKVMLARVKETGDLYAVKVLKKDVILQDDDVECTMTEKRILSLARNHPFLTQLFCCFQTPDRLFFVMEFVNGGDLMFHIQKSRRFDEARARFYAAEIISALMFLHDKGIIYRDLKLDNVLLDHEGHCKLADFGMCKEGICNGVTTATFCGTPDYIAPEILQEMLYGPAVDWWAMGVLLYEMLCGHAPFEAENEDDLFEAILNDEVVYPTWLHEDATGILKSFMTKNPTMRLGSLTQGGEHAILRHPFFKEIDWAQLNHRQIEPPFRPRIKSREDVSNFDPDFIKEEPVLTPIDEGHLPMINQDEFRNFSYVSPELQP
Chain of UniProt Q9NQU5 (whole entry, looked up): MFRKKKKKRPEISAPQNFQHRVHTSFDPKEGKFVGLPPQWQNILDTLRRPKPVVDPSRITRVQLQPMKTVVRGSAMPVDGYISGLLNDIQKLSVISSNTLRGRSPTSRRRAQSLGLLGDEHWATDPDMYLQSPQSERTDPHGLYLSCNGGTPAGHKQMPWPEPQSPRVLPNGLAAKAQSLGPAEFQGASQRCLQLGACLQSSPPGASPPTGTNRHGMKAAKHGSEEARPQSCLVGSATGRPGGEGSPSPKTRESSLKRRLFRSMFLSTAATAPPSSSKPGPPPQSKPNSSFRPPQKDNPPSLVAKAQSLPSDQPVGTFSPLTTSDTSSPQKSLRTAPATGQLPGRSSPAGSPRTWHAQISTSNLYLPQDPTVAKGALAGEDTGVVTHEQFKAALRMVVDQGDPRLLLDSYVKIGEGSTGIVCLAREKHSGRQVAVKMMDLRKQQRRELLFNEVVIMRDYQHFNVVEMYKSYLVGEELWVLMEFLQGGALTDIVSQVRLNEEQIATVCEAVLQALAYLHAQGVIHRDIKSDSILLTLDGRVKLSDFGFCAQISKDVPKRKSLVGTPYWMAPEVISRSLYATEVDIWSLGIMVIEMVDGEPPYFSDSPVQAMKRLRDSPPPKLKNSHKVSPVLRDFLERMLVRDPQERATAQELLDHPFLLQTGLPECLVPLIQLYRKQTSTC
Chain of UniProt P15735 (whole entry, looked up): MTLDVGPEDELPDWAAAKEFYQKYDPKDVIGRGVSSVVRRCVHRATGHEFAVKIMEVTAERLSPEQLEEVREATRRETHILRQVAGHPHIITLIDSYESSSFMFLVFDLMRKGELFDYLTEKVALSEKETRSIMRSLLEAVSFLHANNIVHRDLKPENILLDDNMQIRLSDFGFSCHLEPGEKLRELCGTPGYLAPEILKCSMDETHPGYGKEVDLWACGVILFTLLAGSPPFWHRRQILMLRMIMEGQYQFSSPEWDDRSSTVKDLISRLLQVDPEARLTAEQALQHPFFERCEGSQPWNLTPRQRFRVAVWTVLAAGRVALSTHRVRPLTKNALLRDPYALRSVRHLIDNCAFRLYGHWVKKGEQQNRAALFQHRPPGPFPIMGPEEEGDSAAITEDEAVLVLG

Series 1 — technique: competition with immobilised ligand; tested at: 1 µM
SMILES: Cc1nc(Cc2cccc(C(F)(F)F)c2)sc1-c1ccc(C(N)=O)nc1
target | test | remaining binding
IRAK4 (Homo sapiens, UniProt Q9NWZ3) | cell-free assay | 100%
AKT3 (Homo sapiens, UniProt Q9Y243) | cell-free assay | 92%
SIK3 (Homo sapiens, UniProt Q9Y2K2) | cell-free assay | 75%
STK33 (Homo sapiens, UniProt Q9BYT3) | cell-free assay | 91%
ERBB2 (Homo sapiens, UniProt P04626) | cell-free assay | 100%
CAMKK1 (Homo sapiens, UniProt Q8N5S9) | cell-free assay | 98%
MAP2K3 (Homo sapiens, UniProt P46734) | cell-free assay | 93%
PAK6 (Homo sapiens, UniProt Q9NQU5) | cell-free assay | 92%
MAPK7 (Homo sapiens, UniProt Q13164) | cell-free assay | 88%
MAPK15 (Homo sapiens, UniProt Q8TD08) | cell-free assay | 100%
Tyrosine-protein kinase JAK2, JH1 (JAK2, Homo sapiens, UniProt O60674) | cell-free assay | 100%
GRK4 (Homo sapiens, UniProt P32298) | cell-free assay | 100%
PRKCH (Homo sapiens, UniProt P24723) | cell-free assay | 83%
MAPK10 (Homo sapiens, UniProt P53779) | cell-free assay | 100%
EGFR (Homo sapiens, UniProt P00533, del746-750) | binding | 0%
Ribosomal protein S6 kinase alpha-1, N-terminal kinase domain (RPS6KA1, Homo sapiens, UniProt Q15418) | cell-free assay | 79%
PHKG2 (Homo sapiens, UniProt P15735) | cell-free assay | 100%
Tyrosine-protein kinase ABL1, phosphorylated (ABL1, Homo sapiens, UniProt P00519, F317L) | cell-free assay | 89%
LCK (Homo sapiens, UniProt P06239) | cell-free assay | 100%
MARK2 (Homo sapiens, UniProt Q7KZI7) | cell-free assay | 69%
PRKD2 (Homo sapiens, UniProt Q9BZL6) | cell-free assay | 76%
Ribosomal protein S6 kinase alpha-1, C-terminal kinase domain (RPS6KA1, Homo sapiens, UniProt Q15418) | cell-free assay | 100%
TLK1 (Homo sapiens, UniProt Q9UKI8) | cell-free assay | 100%
TSSK3 (Homo sapiens, UniProt Q96PN8) | cell-free assay | 100%
MAP3K10 (Homo sapiens, UniProt Q02779) | cell-free assay | 71%

Series 2 — observed: enzyme activity; mode: inhibitor; tested at: 1 µM
SMILES: CC#CC(=O)N1CCC[C@H]1c1nc(-c2ccc(C(=O)Nc3ccccn3)cc2)c2c(N)nccn12
target | inhibition [%]
PIK3CA (Homo sapiens, UniProt P42336, E545K) | 33
CLK3 (Homo sapiens, UniProt P49761) | 6
ULK3 (Homo sapiens, UniProt Q6PHR2) | 12
DCLK2 (Homo sapiens, UniProt Q8N568) | 14
MAK (Homo sapiens, UniProt P20794) | 0
NEK3 (Homo sapiens, UniProt P51956) | 40
FES (Homo sapiens, UniProt P07332) | 3
MAP3K2 (Homo sapiens, UniProt Q9Y2U5) | 0

Series 3 — observed: enzyme activity; mode: inhibitor; tested at: 77 µM; reference: untreated
Target: DNA polymerase theta, ATPase domain (POLQ, Homo sapiens, UniProt O75417)
Chain of UniProt O75417 (whole entry, unmodified, looked up): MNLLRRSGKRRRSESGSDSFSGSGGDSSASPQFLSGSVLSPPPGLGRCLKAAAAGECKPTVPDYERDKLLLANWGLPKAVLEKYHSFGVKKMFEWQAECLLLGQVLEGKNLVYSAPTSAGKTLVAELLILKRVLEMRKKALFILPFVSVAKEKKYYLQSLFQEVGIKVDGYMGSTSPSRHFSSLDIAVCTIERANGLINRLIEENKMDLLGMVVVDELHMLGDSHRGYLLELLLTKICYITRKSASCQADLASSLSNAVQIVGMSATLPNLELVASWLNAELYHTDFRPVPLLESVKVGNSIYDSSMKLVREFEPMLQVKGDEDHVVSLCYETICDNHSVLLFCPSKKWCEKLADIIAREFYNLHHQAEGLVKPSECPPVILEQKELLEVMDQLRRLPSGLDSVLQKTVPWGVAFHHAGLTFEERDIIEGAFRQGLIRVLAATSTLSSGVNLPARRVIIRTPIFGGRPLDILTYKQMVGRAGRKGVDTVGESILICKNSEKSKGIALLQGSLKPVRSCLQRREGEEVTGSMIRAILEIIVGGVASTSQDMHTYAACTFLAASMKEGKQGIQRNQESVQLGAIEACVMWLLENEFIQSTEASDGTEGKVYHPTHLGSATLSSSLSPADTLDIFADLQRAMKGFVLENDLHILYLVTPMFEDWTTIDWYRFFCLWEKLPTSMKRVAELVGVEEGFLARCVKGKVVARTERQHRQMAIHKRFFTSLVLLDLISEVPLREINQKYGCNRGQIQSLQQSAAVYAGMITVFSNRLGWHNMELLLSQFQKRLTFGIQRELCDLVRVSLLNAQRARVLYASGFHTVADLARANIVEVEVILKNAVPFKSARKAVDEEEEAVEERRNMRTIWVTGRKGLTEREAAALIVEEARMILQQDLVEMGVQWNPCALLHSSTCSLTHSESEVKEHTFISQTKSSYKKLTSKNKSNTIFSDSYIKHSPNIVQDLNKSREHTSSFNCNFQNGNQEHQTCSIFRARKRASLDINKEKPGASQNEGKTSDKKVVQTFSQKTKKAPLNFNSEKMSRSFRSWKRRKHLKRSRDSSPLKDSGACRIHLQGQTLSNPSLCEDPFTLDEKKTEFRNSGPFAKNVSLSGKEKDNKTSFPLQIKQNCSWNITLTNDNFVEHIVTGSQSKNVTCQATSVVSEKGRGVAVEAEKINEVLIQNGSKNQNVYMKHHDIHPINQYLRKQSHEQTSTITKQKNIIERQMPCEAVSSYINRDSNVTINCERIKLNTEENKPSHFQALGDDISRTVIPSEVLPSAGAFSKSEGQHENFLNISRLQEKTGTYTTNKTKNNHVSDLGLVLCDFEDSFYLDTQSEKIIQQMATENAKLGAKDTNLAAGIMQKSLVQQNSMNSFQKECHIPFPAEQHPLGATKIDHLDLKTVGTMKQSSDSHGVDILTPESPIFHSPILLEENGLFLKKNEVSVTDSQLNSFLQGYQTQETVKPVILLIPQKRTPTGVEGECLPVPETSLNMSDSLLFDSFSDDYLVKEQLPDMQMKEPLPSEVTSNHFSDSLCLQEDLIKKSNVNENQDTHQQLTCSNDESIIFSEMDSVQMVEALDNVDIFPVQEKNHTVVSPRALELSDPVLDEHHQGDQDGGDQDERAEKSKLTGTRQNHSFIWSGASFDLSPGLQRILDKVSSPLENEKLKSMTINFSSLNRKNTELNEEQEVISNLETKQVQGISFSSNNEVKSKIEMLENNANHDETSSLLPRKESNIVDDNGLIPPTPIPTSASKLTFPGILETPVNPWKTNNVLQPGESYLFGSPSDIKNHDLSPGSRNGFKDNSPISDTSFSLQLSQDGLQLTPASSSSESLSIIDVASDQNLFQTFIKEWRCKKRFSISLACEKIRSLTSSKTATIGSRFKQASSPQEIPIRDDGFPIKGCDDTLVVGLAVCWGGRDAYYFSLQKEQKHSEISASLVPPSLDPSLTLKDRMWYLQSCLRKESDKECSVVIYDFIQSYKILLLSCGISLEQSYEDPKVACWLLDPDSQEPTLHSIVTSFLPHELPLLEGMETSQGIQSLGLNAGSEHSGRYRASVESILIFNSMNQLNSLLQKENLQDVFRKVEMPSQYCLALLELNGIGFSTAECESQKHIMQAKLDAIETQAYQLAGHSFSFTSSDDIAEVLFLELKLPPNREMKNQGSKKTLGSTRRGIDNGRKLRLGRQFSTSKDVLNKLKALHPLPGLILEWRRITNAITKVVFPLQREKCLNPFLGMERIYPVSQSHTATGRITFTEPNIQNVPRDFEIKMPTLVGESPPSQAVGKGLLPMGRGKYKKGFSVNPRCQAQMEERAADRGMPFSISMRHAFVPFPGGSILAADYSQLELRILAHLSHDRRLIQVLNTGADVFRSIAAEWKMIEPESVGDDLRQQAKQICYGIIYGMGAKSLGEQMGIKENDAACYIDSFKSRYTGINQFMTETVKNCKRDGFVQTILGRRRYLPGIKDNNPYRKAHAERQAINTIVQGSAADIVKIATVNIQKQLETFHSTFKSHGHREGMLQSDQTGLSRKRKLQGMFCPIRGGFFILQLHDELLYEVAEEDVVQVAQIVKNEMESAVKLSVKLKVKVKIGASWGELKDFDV
Structure (SMILES) | remaining activity
CN(C)Cc1cccc(N=C(c2ccccc2)c2c(O)[nH]c3cc(C(=O)N(C)C)ccc23)c1 | 99.1%
CC(C)N(CCCNC(=O)Nc1ccc(C(C)(C)C)cc1)C[C@H]1O[C@@H](n2ccc3c(N)ncnc32)[C@H](O)[C@@H]1O | 103%
CSc1ccc2c(c1)C(N1CCN(C)CC1)Cc1ccccc1S2 (stereo not shown) | 101%
CCNC(=O)c1noc(-c2cc(C(C)C)c(O)cc2O)c1-c1ccc(CN2CCOCC2)cc1 | 100%
CN(C)CCc1c[nH]c2ccc(Cn3cncn3)cc12 | 99.9%
C#C[C@]1(O)CC[C@H]2[C@@H]3CCC4=CC(=O)CC[C@@H]4[C@H]3CC[C@@]21C | 99.6% and 109%
C[C@@H]1C[C@H]2[C@@H]3CCC4=CC(=O)C=C[C@]4(C)[C@@]3(Cl)[C@@H](O)C[C@]2(C)[C@@]1(OC(=O)c1ccco1)C(=O)CCl | 98.3% and 109%
CC(=O)/N=c1/sc(S(N)(=O)=O)nn1C | 102% and 99.3%
C[C@]1(OC(=O)/C=C/c2ccccc2)C[C@@H](O)[C@]2(O)C=CO[C@@H](O[C@@H]3O[C@H](CO)[C@@H](O)[C@H](O)[C@H]3O)[C@@H]21 | 105%
c1ccc2c(c1)CCC[C@H]2Nc1nc2ccccc2[nH]1 | 101%
CCOC(=O)[C@H](CCc1ccccc1)N[C@@H](C)C(=O)N1Cc2cc(OC)c(OC)cc2C[C@H]1C(=O)O | 102%

Series 4 — dose: dose not given; reference: vehicle
SMILES: CC(=O)N[C@@H](Cc1c[nH]c2ccccc12)C(=O)N[C@@H](CCC(=O)C=[N+]=[N-])C(=O)OC(C)C
test | system | log2 fold change
measured: 1-methylguanidine | mouse, EL4 tumour-bearing, EL4 tumour | 2.6
measured: guanine | mouse, EL4 tumour-bearing, EL4 tumour | -1.2
metabolomics, measured: 2,3-dihydroxy-2-methylbutyrate | mouse, EL4 tumour | -1.19
measured: 2'-deoxyadenosine 5'-monophosphate | mouse, EL4 tumour, tumour | -1.46
measured: phenylalanine | mouse, EL4 tumour-bearing, EL4 tumour | 0.262
measured: 1-ribosyl-imidazoleacetate* | mouse, EL4 tumour-bearing, EL4 tumour | 0.297
measured: UMP | mouse, EL4 tumour-bearing, EL4 tumour | -0.359
measured: 2'-deoxyguanosine | mouse, EL4 tumour-bearing, EL4 tumour | 0.322
measured: S-methylglutathione | mouse, EL4 tumour-bearing, EL4 tumour | -0.839
measured: quinolinate | mouse, EL4 tumour-bearing, EL4 tumour | 0.241
measured: adenine | mouse, EL4 tumour-bearing, EL4 tumour | -2.52

For quick reference, copied from above (series 1):
target | test | remaining binding
ERBB2 (Homo sapiens, UniProt P04626) | cell-free assay | 100%
CAMKK1 (Homo sapiens, UniProt Q8N5S9) | cell-free assay | 98%
MAP2K3 (Homo sapiens, UniProt P46734) | cell-free assay | 93%
PAK6 (Homo sapiens, UniProt Q9NQU5) | cell-free assay | 92%
MAPK7 (Homo sapiens, UniProt Q13164) | cell-free assay | 88%
MAPK15 (Homo sapiens, UniProt Q8TD08) | cell-free assay | 100%
Tyrosine-protein kinase JAK2, JH1 (JAK2, Homo sapiens, UniProt O60674) | cell-free assay | 100%
